# Assay results from different studies.
# Lines come from different studies, so protocols differ. Several values in a cell are separate wells, animals, samples, runs or records. ± marks the error that the study gave.
# Bone morphogenetic protein 2: Bone morphogenetic protein 2 (Homo sapiens, UniProt P12643)
# Chain of UniProt P12643 (whole entry, looked up): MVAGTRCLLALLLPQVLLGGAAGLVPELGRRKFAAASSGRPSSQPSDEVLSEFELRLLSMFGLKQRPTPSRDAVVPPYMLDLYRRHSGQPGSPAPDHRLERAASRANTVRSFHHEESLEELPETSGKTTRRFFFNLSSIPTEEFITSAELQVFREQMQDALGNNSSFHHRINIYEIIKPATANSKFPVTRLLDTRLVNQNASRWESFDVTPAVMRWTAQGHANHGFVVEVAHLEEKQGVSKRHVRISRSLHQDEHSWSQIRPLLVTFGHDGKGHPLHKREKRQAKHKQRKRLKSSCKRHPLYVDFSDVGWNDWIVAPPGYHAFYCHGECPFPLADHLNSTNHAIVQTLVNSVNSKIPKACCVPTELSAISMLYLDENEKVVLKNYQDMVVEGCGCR
# ADORA1: Adenosine receptor A1 (ADORA1, Homo sapiens, UniProt P30542)
# Chain of UniProt P30542 (whole entry, looked up): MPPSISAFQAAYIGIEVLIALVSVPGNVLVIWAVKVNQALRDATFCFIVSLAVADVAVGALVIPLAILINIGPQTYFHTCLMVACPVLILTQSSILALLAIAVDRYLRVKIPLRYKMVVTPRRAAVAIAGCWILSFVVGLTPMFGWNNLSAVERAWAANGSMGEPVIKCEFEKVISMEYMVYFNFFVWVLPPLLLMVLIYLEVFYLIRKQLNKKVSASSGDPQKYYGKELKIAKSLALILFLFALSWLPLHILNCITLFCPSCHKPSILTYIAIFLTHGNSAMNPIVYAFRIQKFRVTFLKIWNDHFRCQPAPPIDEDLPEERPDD
# ABO G235S/G268A/L266M/R176G: Histo-blood group ABO system transferase (ABO, Homo sapiens, UniProt P16442, G235S/G268A/L266M/R176G)
# Chain of UniProt P16442 (whole entry, unmodified, looked up): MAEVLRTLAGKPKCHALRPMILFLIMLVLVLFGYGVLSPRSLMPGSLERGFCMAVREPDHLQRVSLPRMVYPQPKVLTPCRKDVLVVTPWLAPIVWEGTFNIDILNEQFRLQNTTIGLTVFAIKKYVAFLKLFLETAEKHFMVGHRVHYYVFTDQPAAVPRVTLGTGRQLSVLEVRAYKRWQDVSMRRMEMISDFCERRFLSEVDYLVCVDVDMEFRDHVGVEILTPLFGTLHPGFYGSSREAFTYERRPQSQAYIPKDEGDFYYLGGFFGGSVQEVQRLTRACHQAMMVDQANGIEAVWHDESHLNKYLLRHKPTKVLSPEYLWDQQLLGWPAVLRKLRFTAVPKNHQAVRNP
# RIPK1: Receptor-interacting serine/threonine-protein kinase 1 (RIPK1, Homo sapiens, UniProt Q13546)
# Chain of UniProt P07814 (whole entry, looked up): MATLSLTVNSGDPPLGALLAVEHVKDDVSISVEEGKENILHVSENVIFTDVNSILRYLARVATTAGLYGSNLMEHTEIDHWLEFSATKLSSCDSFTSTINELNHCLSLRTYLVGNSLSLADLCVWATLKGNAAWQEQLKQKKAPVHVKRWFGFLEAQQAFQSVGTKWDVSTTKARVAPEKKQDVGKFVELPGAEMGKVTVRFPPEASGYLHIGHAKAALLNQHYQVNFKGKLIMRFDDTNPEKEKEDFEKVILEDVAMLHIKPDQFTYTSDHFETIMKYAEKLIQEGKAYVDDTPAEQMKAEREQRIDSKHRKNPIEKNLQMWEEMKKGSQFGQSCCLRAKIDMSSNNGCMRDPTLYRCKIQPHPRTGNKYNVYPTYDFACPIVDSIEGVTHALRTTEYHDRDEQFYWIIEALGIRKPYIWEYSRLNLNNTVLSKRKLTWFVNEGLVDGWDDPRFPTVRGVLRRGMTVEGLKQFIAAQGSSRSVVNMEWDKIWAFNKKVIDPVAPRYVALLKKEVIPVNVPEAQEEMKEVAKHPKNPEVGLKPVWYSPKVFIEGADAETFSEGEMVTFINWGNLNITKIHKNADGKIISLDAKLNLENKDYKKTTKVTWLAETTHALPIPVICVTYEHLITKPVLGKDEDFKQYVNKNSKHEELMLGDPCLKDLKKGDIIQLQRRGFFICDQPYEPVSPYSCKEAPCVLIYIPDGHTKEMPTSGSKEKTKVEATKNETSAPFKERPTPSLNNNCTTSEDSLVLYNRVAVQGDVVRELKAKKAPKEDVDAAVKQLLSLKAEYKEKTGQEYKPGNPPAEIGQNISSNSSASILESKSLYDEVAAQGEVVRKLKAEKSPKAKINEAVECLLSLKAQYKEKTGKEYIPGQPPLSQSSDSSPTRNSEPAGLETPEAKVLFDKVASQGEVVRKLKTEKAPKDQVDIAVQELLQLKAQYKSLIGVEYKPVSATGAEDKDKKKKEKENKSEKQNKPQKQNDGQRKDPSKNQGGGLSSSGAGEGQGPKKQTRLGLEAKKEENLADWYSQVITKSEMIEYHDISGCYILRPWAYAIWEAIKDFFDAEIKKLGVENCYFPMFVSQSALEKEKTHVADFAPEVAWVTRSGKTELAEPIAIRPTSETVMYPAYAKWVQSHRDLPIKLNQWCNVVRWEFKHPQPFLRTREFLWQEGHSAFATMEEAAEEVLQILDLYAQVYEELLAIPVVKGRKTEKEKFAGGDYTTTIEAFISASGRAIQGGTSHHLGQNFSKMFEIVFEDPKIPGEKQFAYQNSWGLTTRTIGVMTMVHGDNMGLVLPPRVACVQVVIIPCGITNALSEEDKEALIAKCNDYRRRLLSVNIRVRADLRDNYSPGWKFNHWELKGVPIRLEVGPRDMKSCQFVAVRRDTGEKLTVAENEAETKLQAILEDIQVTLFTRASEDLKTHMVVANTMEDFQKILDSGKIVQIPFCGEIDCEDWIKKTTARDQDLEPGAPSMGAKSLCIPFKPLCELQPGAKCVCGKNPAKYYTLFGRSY
# Chain of UniProt Q13546 (whole entry, looked up): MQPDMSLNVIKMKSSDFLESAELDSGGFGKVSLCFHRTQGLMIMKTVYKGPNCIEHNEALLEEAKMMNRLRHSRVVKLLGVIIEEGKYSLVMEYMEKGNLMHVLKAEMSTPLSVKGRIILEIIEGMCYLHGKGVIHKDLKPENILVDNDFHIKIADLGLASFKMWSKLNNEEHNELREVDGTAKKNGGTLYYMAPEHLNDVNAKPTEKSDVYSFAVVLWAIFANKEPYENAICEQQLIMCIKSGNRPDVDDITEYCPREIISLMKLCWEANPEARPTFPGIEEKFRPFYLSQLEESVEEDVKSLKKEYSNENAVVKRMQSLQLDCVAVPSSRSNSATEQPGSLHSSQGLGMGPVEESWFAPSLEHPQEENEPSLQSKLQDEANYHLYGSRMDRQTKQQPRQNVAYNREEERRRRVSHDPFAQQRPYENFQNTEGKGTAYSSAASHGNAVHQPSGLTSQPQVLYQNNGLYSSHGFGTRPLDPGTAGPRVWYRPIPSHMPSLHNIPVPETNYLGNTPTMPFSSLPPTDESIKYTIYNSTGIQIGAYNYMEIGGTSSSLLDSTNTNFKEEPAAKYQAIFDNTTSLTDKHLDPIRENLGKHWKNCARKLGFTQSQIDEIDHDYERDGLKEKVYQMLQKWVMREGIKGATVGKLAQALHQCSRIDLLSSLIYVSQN
# Chain of UniProt P54619 (whole entry, unmodified, looked up): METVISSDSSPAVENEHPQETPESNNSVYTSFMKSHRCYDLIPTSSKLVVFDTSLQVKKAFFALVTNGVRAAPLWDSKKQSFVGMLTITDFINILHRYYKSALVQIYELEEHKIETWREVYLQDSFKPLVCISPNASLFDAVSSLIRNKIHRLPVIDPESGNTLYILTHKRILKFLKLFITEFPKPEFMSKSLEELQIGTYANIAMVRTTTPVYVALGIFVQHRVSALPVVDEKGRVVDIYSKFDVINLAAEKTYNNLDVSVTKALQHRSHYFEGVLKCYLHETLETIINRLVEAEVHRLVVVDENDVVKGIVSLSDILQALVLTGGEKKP
# Chain of UniProt P0DMV8 (whole entry, looked up): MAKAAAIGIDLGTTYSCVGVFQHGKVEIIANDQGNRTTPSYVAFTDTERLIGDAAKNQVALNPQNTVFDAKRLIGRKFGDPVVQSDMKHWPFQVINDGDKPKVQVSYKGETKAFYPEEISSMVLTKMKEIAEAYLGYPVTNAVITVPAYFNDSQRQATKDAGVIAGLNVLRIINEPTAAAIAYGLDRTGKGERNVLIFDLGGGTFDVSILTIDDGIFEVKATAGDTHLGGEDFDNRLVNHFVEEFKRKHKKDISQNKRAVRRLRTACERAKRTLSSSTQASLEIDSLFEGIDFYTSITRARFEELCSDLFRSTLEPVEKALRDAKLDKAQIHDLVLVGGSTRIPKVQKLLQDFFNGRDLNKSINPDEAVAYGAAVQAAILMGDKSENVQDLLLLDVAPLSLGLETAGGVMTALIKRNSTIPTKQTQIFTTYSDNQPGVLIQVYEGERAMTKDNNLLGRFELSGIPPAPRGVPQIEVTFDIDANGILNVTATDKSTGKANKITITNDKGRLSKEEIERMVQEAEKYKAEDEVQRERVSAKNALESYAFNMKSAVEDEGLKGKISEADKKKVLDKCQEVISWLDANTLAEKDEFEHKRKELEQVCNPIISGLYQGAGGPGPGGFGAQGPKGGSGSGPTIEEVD
# Chain of UniProt Q9Y478 (whole entry, unmodified, looked up): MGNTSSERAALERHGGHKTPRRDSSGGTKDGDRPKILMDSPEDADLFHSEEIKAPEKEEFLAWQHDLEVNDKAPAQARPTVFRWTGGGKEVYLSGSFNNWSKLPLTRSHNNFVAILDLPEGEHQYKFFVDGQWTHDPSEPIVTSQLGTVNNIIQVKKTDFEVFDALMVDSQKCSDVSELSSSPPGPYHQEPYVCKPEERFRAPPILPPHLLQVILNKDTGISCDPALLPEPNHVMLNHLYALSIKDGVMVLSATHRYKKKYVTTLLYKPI
# Chain of UniProt Q92879 (whole entry, unmodified, looked up): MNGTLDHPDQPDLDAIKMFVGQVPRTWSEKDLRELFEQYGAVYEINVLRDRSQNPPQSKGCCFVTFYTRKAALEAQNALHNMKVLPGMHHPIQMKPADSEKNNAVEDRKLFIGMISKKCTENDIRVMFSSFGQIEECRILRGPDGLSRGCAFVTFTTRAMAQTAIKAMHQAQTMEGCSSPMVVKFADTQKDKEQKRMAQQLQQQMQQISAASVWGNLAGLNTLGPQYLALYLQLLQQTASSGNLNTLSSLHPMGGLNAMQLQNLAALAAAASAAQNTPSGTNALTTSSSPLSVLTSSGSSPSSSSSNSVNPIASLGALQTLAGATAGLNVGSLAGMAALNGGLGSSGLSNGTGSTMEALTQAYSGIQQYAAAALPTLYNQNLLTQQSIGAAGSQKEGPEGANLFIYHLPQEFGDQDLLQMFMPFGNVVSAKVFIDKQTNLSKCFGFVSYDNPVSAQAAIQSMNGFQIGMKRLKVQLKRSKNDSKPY
target,test,system,setting,Kd,SMILES
Bone morphogenetic protein 2,"ligand displacement, FP",,,3.4 µM,CC(=O)N[C@H]1[C@H](O[C@H]2[C@H](OS(=O)(=O)O)[C@@H](OS(=O)(=O)O)[C@H](O[C@H]3[C@H](OS(=O)(=O)O)[C@@H](COS(=O)(=O)O)OC[C@@H]3NC(C)=O)O[C@@H]2C(=O)O)O[C@H](COS(=O)(=O)O)[C@@H](OS(=O)(=O)O)[C@@H]1O[C@@H]1O[C@H](C(=O)O)[C@@H](OS(=O)(=O)O)[C@H](OS(=O)(=O)O)[C@H]1OS(=O)(=O)O
"B- and T-lymphocyte attenuator (BTLA, Homo sapiens, UniProt Q7Z6A9)","binding, microscale thermophoresis",,,0.531 µM,COc1ccc([C@@H](C#N)N2CCN(C(=O)c3nn(-c4ccccc4)c(=O)c4ccccc34)CC2)cc1
"NAD-dependent protein deacetylase (cobB, Thermotoga maritima, UniProt Q9WYW0)","acetylated p53 peptide binding, intrinsic tyrosine fluorescence",,"pH 9.2, target 0.4 µM",2.7 µM,CSCC[C@H](NC(=O)[C@H](CC(C)C)NC(=O)[C@H](CCCCNC(C)=O)NC(=O)[C@H](CCCCN)NC(=O)[C@H](Cc1c[nH]cn1)NC(=O)[C@H](CCCNC(=N)N)NC(=O)[C@H](CO)NC(=O)[C@@H](NC(=O)[C@H](CO)NC(=O)[C@H](CCC(N)=O)NC(=O)CNC(=O)[C@H](CCCCN)NC(=O)[C@@H](N)CCCCN)[C@@H](C)O)C(=O)N[C@@H](Cc1ccccc1)C(=O)N[C@@H](CCCCN)C(=O)N[C@H](C(=O)N[C@@H](CCC(=O)O)C(=O)NCC(=O)O)[C@@H](C)O
"Bifunctional glutamate/proline--tRNA ligase, prolyl-tRNA synthetase domain (EPRS1, Homo sapiens, UniProt P07814)","binding, microscale thermophoresis",,,0.0208 µM and 0.0352 µM,Cc1cc(N2CC[C@@](C#N)(C3CC3)C2=O)cc(NC(=O)Cc2ccccc2)n1
"RNA A, CCUG repeat 11-mer","binding, ITC",,,79 µM,COc1ccc2nc3cc(Cl)ccc3c(NCCCCNc3nc(N)nc(N)n3)c2c1
Bone morphogenetic protein 2,"ligand displacement, FP",,,0.039 µM,CC(=O)N[C@@H]1[C@@H](O[C@@H]2O[C@H](C(=O)O)[C@@H](O[C@@H]3O[C@H](COS(=O)(=O)O)[C@@H](OS(=O)(=O)O)[C@H](O[C@@H]4O[C@H](C(=O)O)[C@@H](OS(=O)(=O)O)[C@H](OS(=O)(=O)O)[C@H]4OS(=O)(=O)O)[C@H]3NC(C)=O)[C@H](OS(=O)(=O)O)[C@H]2OS(=O)(=O)O)[C@H](OS(=O)(=O)O)[C@@H](COS(=O)(=O)O)O[C@H]1SCCOCCOCCSSCCOCCOCCS[C@@H]1O[C@H](COS(=O)(=O)O)[C@@H](OS(=O)(=O)O)[C@H](O[C@@H]2O[C@H](C(=O)O)[C@@H](O[C@@H]3O[C@H](COS(=O)(=O)O)[C@@H](OS(=O)(=O)O)[C@H](O[C@@H]4O[C@H](C(=O)O)[C@@H](OS(=O)(=O)O)[C@H](OS(=O)(=O)O)[C@H]4OS(=O)(=O)O)[C@H]3NC(C)=O)[C@H](OS(=O)(=O)O)[C@H]2OS(=O)(=O)O)[C@H]1NC(C)=O
ADORA1,"CRE reporter gene, antagonist, parallel shift",CHO-A1,"Gi-mediated inhibition, with: NECA and forskolin",1 µM,CCCn1c(=O)c2[nH]c(-c3ccc(OCC(=O)NCCNC(=O)CCCCCNS(=O)(=O)c4ccc(C5=c6cc7c8c(c6Oc6c5cc5c9c6CCCN9CCC5)CCC[N+]=8CCC7)c(S(=O)(=O)[O-])c4)cc3)nc2n(CCC)c1=O
"Heat shock 70 kDa protein 1A, ADP-bound (HSPA1A, Homo sapiens, UniProt P0DMV8)","binding, isothermal titration calorimetry",,"pH 5.5, 25 °C, full-length ADP-bound, 3% DMSO",~10 µM,CC(C)C[C@H](NC(=O)[C@H](CC(C)C)NC(=O)[C@H](CCCNC(=N)N)NC(=O)[C@@H](N)CC(N)=O)C(=O)N[C@@H](CC(C)C)C(=O)N[C@H](C(=O)NCC(=O)O)[C@@H](C)O
"Eotaxin (CCL11, Homo sapiens, UniProt P51671)","binding, NMR",,pH 6.5,22 µM,CC(C)C[C@H](NC(=O)[C@H](CC(C)C)NC(=O)CNC(=O)[C@@H](NC(=O)[C@H](CC(=O)O)NC(=O)[C@H](CC(=O)O)NC(=O)[C@H](Cc1ccc(OS(=O)(=O)O)cc1)NC(=O)[C@H](Cc1ccc(O)cc1)NC(=O)[C@H](CO)NC(=O)[C@@H](NC(=O)[C@@H](NC(=O)CNC(=O)[C@H](Cc1ccccc1)NC(=O)[C@@H](NC(=O)[C@H](CCC(=O)O)NC(=O)[C@@H](N)C(C)C)[C@@H](C)O)[C@@H](C)O)[C@@H](C)O)C(C)C)C(=O)O
"CUGBP Elav-like family member 1, RRM1/2 domains (CELF1, Homo sapiens, UniProt Q92879, K117A)",isothermal titration calorimetry,,25 °C,not detected,CN(C)c1cc2ccccc2c(N)n1
"AMP-activated protein kinase (AMPK) alpha-1/beta-1/gamma-1, beta1 residues 185–270 (PRKAG1/PRKAA1/PRKAB1, Homo sapiens, UniProt P54619+Q13131+Q9Y478)","binding, circular dichroism titration",,ΔCBM complex,51 µM,Cc1ccc(Oc2nc3cc(-c4ccc5c(ccn5C)c4)c(Cl)cc3[nH]2)cc1C(=O)O
"EPRS1 (Homo sapiens, UniProt P07814)","binding, MST",,,1.48 µM,Cc1cc(N2CC[C@](C#N)(C3(C)CC3)C2=O)cc(C(=O)NCc2cc(F)cc(-c3cnn(C)c3)c2)n1
ABO G235S/G268A/L266M/R176G,methyl-TROSY NMR titration lineshape analysis,,apo enzyme,318 ± 5 µM,C=CCCCCCCO[C@@H]1O[C@H](CO)[C@@H](O[C@@H]2O[C@H](CO)[C@H](O)[C@H](O)[C@H]2O[C@@H]2O[C@@H](C)[C@@H](O)[C@@H](O)[C@@H]2O)[C@H](O)[C@H]1O
ADORA1,"CRE reporter gene, antagonist, parallel shift",CHO-A1,"Gi-mediated inhibition, with: NECA and forskolin",0.0372 µM,CCCn1c(=O)c2[nH]c(-c3ccc(OCC(=O)NCCNC(=O)CCCCCCCNS(=O)(=O)c4cccc5c(N(C)C)cccc45)cc3)nc2n(CCC)c1=O
ABO G235S/G268A/L266M/R176G,"binding, NMR",,,3300 µM,CC(=O)N[C@H]1[C@@H](OP(=O)(O)OP(=O)(O)OC[C@H]2O[C@@H](n3ccc(=O)[nH]c3=O)[C@H](O)[C@@H]2O)O[C@H](CO)[C@@H](O)[C@@H]1O
"Inducible T-cell costimulator (Homo sapiens, UniProt Q9Y6W8)","binding, SPR",,,185 µM,Cc1c(OCc2ccc(Cl)c(Cl)c2)ccc(-c2cc[nH]n2)c1O
RIPK1,"binding, competition with immobilised ligand",,,0.14 µM,COc1cc2nc(NC(=O)C3CC3)sc2cc1Oc1ccc(F)c(NC(=O)Cc2cccc(C(F)(F)F)c2)c1
"Focal adhesion kinase 1, FAT domain (PTK2, Homo sapiens, UniProt Q05397, E948A/K955A/R962A/V932A)","binding, fluorescence polarization saturation",,two-site mutant KER+V932A,no binding,CC(C)C[C@H](NC(=O)[C@H](CCC(=O)O)NC(=O)[C@H](CC(=O)O)NC(=O)[C@H](CC(C)C)NC(=O)[C@H](CC(C)C)NC(=O)[C@H](CCCNC(=N)N)NC(=O)[C@H](CC(=O)O)NC(=O)[C@H](CC(C)C)NC(=O)[C@H](CCC(=O)O)NC(=O)[C@H](CO)NC(=O)[C@H](CC(C)C)NC(=O)[C@H](CC(N)=O)NC(=O)CCCCCNC(=O)c1ccc2c(c1)C(=O)OC21c2ccc(N(C)C)cc2Oc2cc(N(C)C)ccc21)C(=O)N[C@@H](CC(N)=O)C(=O)O
"WD repeat-containing protein 55 (WDR55, Homo sapiens, UniProt Q9H6Y2)",,,,5 µM,C[C@H]1Cc2cc(-c3ccnc4ncnn34)ccc2O1
d(G4C2)8 DNA,"binding, microscale thermophoresis",,no saturable binding,> 20 µM,Cc1c2ccnc(C(=O)N[C@H](C)CN(C)C)c2cc2c3cc(OCCCN4CCN(C)CC4)ccc3n(C)c12
"Bromodomain factor 2 (Trypanosoma brucei brucei, UniProt Q38AM1)",ITC,,15 °C,no binding,COCCOCCOCCOC(=O)c1cnc2cc(-c3c(C)noc3C)c(OC)cc2c1N[C@H](C)c1ccccn1
RIPK1,"binding, competition with immobilised ligand",,,0.022 µM,CC(O)c1c(Oc2ccc(F)c(NC(=O)Cc3cccc(C(F)(F)F)c3)c2)ccc2nc(NC(=O)C3CC3)sc12 (centres unmarked)
"Albumin (ALB, Homo sapiens, UniProt P02768)",fluorescence quenching,,"range from 25 °C, order over all temperatures",~10 µM,O=C(/C=C/c1ccc(O)c(O)c1)NCCCCCCCC[P+](c1ccccc1)(c1ccccc1)c1ccccc1
ABO G235S/G268A/L266M/R176G,methyl-TROSY NMR titration lineshape analysis,,apo enzyme,2900 ± 200 µM,C=CCCCCCCO[C@H]1O[C@H](CO)[C@H](O)[C@H](O[C@@H]2O[C@H](CO)[C@H](O)[C@H](O)[C@H]2O[C@@H]2O[C@@H](C)[C@@H](O)[C@@H](O)[C@@H]2O)[C@H]1NC(C)=O
RIPK1,"binding, competition with immobilised ligand",,,0.18 µM,O=C(Cc1cccc(C(F)(F)F)c1)Nc1cc(Oc2cc3sc(NC(=O)C4CC4)nc3cc2Br)ccc1F
"Microtubule-associated protein tau, 0N4R isoform, aggregated (MAPT, Homo sapiens, UniProt P10636)","binding, fluorescence",20% sucrose tau fraction,,0.07 ± 0.03 µM,OC(Cc1cc(-c2ccc(C(O)C(F)(F)F)s2)sc1-c1ccc(-c2sc(-c3ccc(C(O)C(F)(F)F)s3)cc2CC(O)C(F)(F)F)s1)C(F)(F)F (centres unmarked)

# Excerpt of the above:
target,test,system,setting,Kd,SMILES
"AMP-activated protein kinase (AMPK) alpha-1/beta-1/gamma-1, beta1 residues 185–270 (PRKAG1/PRKAA1/PRKAB1, Homo sapiens, UniProt P54619+Q13131+Q9Y478)","binding, circular dichroism titration",,ΔCBM complex,51 µM,Cc1ccc(Oc2nc3cc(-c4ccc5c(ccn5C)c4)c(Cl)cc3[nH]2)cc1C(=O)O
"EPRS1 (Homo sapiens, UniProt P07814)","binding, MST",,,1.48 µM,Cc1cc(N2CC[C@](C#N)(C3(C)CC3)C2=O)cc(C(=O)NCc2cc(F)cc(-c3cnn(C)c3)c2)n1
ABO G235S/G268A/L266M/R176G,methyl-TROSY NMR titration lineshape analysis,,apo enzyme,318 ± 5 µM,C=CCCCCCCO[C@@H]1O[C@H](CO)[C@@H](O[C@@H]2O[C@H](CO)[C@H](O)[C@H](O)[C@H]2O[C@@H]2O[C@@H](C)[C@@H](O)[C@@H](O)[C@@H]2O)[C@H](O)[C@H]1O
